Results from different studies.
Compare with care: the assays were run in different laboratories.
Organism: Enterococcus faecium

SMILES | assay | test system | setting | MIC
CCCCCCC#Cc1cncc(-c2nnc(SCc3cc(C(F)(F)F)cc(C(F)(F)F)c3)n2CCCN)c1 | broth microdilution | ATCC 51559 MDR VRE | 18 to 24 h, 37 °C | 8 µg/mL
CN[C@H](CC(C)C)C(=O)N[C@H]1C(=O)N[C@@H](CC(N)=O)C(=O)N[C@H]2C(=O)N[C@H]3C(=O)N[C@H](C(=O)N[C@H](C(=O)O)c4cc(O)cc(O)c4-c4cc3ccc4O)[C@H](O)c3ccc(c(Cl)c3)Oc3cc2cc(c3O[C@@H]2O[C@H](CO)[C@@H](O)[C@H](O)[C@H]2O[C@H]2C[C@](C)(N)[C@H](O)[C@H](C)O2)Oc2ccc(cc2Cl)[C@H]1O | – | vancomycin-susceptible | – | 0.5 µg/mL
CC[C@H](C)[C@H](NC(=O)[C@H](CC(C)C)NC(=O)[C@H](CCCNC(=N)N)NC(=O)[C@@H](N)CCCNC(=N)N)C(=O)N[C@@H](CC(C)C)C(=O)N[C@H](C(=O)N[C@@H](CCCCN)C(=O)N[C@H](C(=O)NCC(=O)N1CCC[C@H]1C(=O)N[C@H](C(=O)N[C@H](C(=O)N[C@@H](Cc1ccc(O)cc1)C(=O)N[C@@H](CCCCN)C(=O)N[C@@H](Cc1ccc(O)cc1)C(=O)N[C@@H](Cc1ccccc1)C(=O)N[C@@H](CCCCN)C(=O)N[C@@H](CCCCN)C(=O)N[C@@H](CCC(N)=O)C(=O)N[C@@H](CC(C)C)C(=O)N[C@@H](CCCCN)C(=O)N[C@@H](CCCCN)C(=O)N[C@@H](CC(C)C)C(N)=O)[C@@H](C)CC)[C@@H](C)CC)[C@@H](C)O)[C@@H](C)O | – | ATCC 51559, vancomycin-resistant, Mueller-Hinton broth | 24 h | 4 µM
Cc1ccc2[nH]c3c(c2c1)CCCC3NCCc1ccc(O)cc1 (centres unmarked) | broth microdilution | BM4147 vancomycin-resistant | – | 16 µg/mL
CN[C@H](CC(C)C)C(=O)N[C@H]1C(=O)N[C@@H](CC(N)=O)C(=O)N[C@H]2C(=O)NC3C(=O)N[C@H](C(=O)N[C@H](C(=O)NCCC[N+](C)(C)C)c4cc(O)cc(O)c4-c4cc3ccc4O)[C@H](O)c3ccc(c(Cl)c3)Oc3cc2cc(c3OC2OC(CO)C(O)[C@H](O)[C@@H]2O[C@H]2CC(C)(NCc3ccc(-c4ccc(Cl)cc4)cc3)[C@H](O)[C@H](C)O2)Oc2ccc(cc2Cl)[C@H]1O (some centres unmarked) | – | ATCC BAA-2317 VanA VRE | no additive | 0.3 µg/mL
CC[C@H](C)[C@H](NC(=O)[C@H](CC(C)C)NC(=O)[C@H](CCCNC(=N)N)NC(=O)[C@@H](N)CCCNC(=N)N)C(=O)N[C@@H](CCCNC(=N)N)C(=O)N[C@@H](CCCCN)C(=O)N[C@@H](CC(C)C)C(=O)N[C@@H](CCCCN)C(=O)NCC(=O)N[C@@H](CC(C)C)C(=O)N[C@@H](CCCCN)C(=O)N[C@@H](CCCCN)C(=O)N[C@@H](Cc1ccc(O)cc1)C(=O)N[C@@H](CC(C)C)C(=O)N[C@@H](Cc1ccc(O)cc1)C(=O)N[C@@H](Cc1ccccc1)C(=O)N[C@@H](CCCCN)C(=O)N[C@@H](CC(C)C)C(=O)N[C@@H](CCC(N)=O)C(=O)N[C@@H](CC(C)C)C(=O)N[C@@H](CC(C)C)C(=O)N[C@@H](CCCCN)C(=O)N[C@@H](CCCCN)C(N)=O | – | ATCC 51559, vancomycin-resistant, Mueller-Hinton broth | 24 h | 4 µM
CCCCCCCCCC(=O)N[C@@H](Cc1c[nH]c2ccccc12)C(=O)N[C@H](CC(N)=O)C(=O)N[C@@H](CC(=O)O)C(=O)N[C@@H]1C(=O)NCC(=O)N[C@@H](CCCN)C(=O)N[C@@H](CC(=O)O)C(=O)N[C@H](C)C(=O)N[C@@H](CC(=O)O)C(=O)NCC(=O)N[C@H](CO)C(=O)N[C@@H]([C@H](C)CC(=O)O)C(=O)N[C@@H](CC(=O)c2ccccc2N)C(=O)O[C@@H]1C | – | resistant isolate | 16 h, added: Ca2+ 0 mM | > 128 µg/mL
CC[C@H](C)[C@H](NC(=O)[C@H](CC(C)C)NC(=O)[C@H](CCCNC(=N)N)NC(=O)[C@@H](N)CCCNC(=N)N)C(=O)N[C@@H](CC(C)C)C(=O)N[C@H](C(=O)N[C@@H](CCCCN)C(=O)N[C@H](C(=O)NCC(=O)N1CCC[C@H]1C(=O)N[C@H](C(=O)N[C@H](C(=O)N[C@@H](Cc1ccc(O)cc1)C(=O)N[C@@H](CCCCN)C(=O)N[C@@H](Cc1ccc(O)cc1)C(=O)N[C@@H](Cc1ccccc1)C(=O)N[C@@H](CCCCN)C(=O)N[C@@H](CCCCN)C(=O)N[C@@H](CCC(N)=O)C(=O)N[C@@H](CC(C)C)C(=O)N[C@@H](CC(C)C)C(=O)N[C@@H](CCCCN)C(=O)N[C@@H](CC(C)C)C(N)=O)[C@@H](C)CC)[C@@H](C)CC)[C@@H](C)O)[C@@H](C)O | – | ATCC 51559, vancomycin-resistant, Mueller-Hinton broth | 24 h | 8 µM
CC[C@H](C)[C@H](NC(=O)[C@@H](NC(=O)[C@H](Cc1ccccc1)NC(=O)CNC(=O)[C@H](CCC(N)=O)NC(=O)[C@H](CCCCN)NC(=O)[C@H](C)N)C(C)C)C(=O)N[C@@H](Cc1ccc(O)cc1)C(=O)N[C@@H](CCCNC(=N)N)C(=O)N[C@H](C(=O)N[C@@H](CCCNC(=N)N)C(=O)N[C@H](C(=O)N[C@@H](CCCNC(=N)N)C(=O)N[C@@H](CCCNC(=N)N)C(=O)NCC(=O)N[C@@H](CC(N)=O)C(=O)N[C@@H](CCCNC(=N)N)C(=O)N[C@@H](CCCCN)C(N)=O)C(C)C)C(C)C | broth dilution | KCTC 13225 | – | > 100 µM
CN[C@H](CC(C)C)C(=O)N[C@H]1C(=O)N[C@@H](CC(N)=O)C(=O)N[C@H]2C(=O)N[C@H]3C(=O)N[C@H](C(=O)N[C@H](C(=O)O)c4cc(O)cc(O)c4-c4cc3ccc4O)[C@H](O)c3ccc(c(Cl)c3)Oc3cc2cc(c3O[C@@H]2O[C@H](CO)[C@@H](O)[C@H](O)[C@H]2O[C@H]2C[C@](C)(N)[C@H](O)[C@H](C)O2)Oc2ccc(cc2Cl)[C@H]1O | – | BAA-2317, vanA | – | 250 µg/mL
Oc1c(Cl)cc(Cl)cc1-c1[nH]c(Cl)c(Cl)c1Cl | – | ATCC 6569 | – | 4 µM

For quick reference, copied from above:
SMILES | assay | test system | setting | MIC
CCCCCCC#Cc1cncc(-c2nnc(SCc3cc(C(F)(F)F)cc(C(F)(F)F)c3)n2CCCN)c1 | broth microdilution | ATCC 51559 MDR VRE | 18 to 24 h, 37 °C | 8 µg/mL
